# Measurements gathered from unrelated publications.
# Parts stem from different laboratories: compare values within a part only. Positions count from the first letter of the parent shown. pIC50: −log10 of the molar value.
# Sequence of UniProt P08311 (whole entry, looked up): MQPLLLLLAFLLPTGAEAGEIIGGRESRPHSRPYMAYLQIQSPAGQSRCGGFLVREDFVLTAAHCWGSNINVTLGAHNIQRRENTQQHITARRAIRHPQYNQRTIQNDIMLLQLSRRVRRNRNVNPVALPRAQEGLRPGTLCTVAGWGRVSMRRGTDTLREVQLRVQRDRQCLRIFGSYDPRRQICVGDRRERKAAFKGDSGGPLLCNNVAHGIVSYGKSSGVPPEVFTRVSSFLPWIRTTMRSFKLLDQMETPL
# Sequence of UniProt P41143 (whole entry, looked up): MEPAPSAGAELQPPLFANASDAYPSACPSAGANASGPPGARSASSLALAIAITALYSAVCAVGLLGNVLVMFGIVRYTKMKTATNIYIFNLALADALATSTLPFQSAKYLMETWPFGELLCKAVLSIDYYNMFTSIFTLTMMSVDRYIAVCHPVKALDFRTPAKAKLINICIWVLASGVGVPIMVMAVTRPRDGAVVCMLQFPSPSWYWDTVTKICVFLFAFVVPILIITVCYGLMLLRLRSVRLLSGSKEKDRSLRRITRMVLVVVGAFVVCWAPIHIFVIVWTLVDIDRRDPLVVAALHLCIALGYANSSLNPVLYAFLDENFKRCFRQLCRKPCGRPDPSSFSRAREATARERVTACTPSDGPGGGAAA

# Study 1
# Target: HLA class I histocompatibility antigen, A alpha chain, allele A*25:01 (Homo sapiens, UniProt P04439)
# Read-out: peptide-MHC binding
# Molecule type: peptide
# Concentration: concentration not given
Molecule,binding
FSSCPVAY,inactive
MKYVWPPIM,inactive
MHDPHSIPL,inactive
SCINGQCPY,inactive
SYMLQGLRK,inactive
FPASHMATY,active
PLTNQRYRV,inactive
ETIEILRNY,active

# Study 2
# Target: CCNE1, cyclin fold, Cln2 fusion (human)
# Technique: yeast growth competition, sequencing
# Matrix: yeast
# Setting: strong parent motif
# Relative to: not given
# Reading: higher = stronger binding
# Parent: viral docking peptide; YKVKRRLVFGADD
Substitution,normalised enrichment score
K2P,5.53
V8A,4.63
G10E,6.23
D12L,4.67
R5P,-0.0026
V3E,0.35
L7D,0.339
K4H,1.32

# Other studies, line by line
Compound,tested on,assay,setting,scale,quantity,value
O=C(CCCCCCC(=O)Nc1ccccc1)NO,HEK-293T-ACE2,,concentration not given,relative to: vehicle,cell number,86.4%
CN1CCN(C(=O)C(C)(C)c2ccc(C(=O)Nc3cn4cc(-c5ccncc5)ccc4n3)cc2)CC1,"Delta-type opioid receptor (OPRD1, Homo sapiens, UniProt P41143)","binding, radioligand binding",10 µM,,inhibition,4.05%
OCCN(CCO)c1nc(N2CCCCC2)c2nc(N(CCO)CCO)nc(N3CCCCC3)c2n1,HEK-293T-ACE2,,concentration not given,relative to: vehicle,cell number,106%
CC[C@H]1C(=O)N[C@@H](CC(C)C)C(=O)N2CCC[C@@H]2C(=O)N(C)[C@@H](Cc2ccccc2)C(=O)N[C@@H](CC(C)C)C(=O)N(C)[C@H](C)C(=O)N1C,,logD(dd/w) and ALogP,MRN method,,lipophilic permeability efficiency,3.62
NC(=O)CCC(N)C(=O)O (racemic),HEK-293T-ACE2,,concentration not given,relative to: vehicle,cell number,101%
CC(C)C[C@H](NC(=O)[C@@H](NC(=O)N[C@@H](Cc1ccccc1)C(=O)O)[C@@H]1CCN=C(N)N1)C(=O)N[C@H](C=O)Cc1ccccc1,"Cathepsin G (CTSG, Homo sapiens, UniProt P08311)",,,,pIC50,5.45
